# Assay results pooled from the literature.
# Numbers after ± are the reported error.
Compound,assay,test system,setting,Tmax
CN(CCOc1ccc(CC2SC(=O)NC2=O)cc1)c1ccccn1 (centres unmarked),,"Sprague-Dawley rat, female, plasma","intraperitoneal, 5 mg/kg of dasatinib, with: dasatinib co-dosed",0.8 ± 0.69 h
CC(C)=CCC[C@](C)(O[C@@H]1O[C@H](CO)[C@@H](O)[C@H](O)[C@H]1O)[C@H]1CC[C@]2(C)[C@@H]1[C@H](O)C[C@@H]1[C@@]3(C)CC[C@H](O)C(C)(C)[C@@H]3[C@@H](O[C@@H]3O[C@H](CO)[C@@H](O)[C@H](O)[C@H]3O[C@@H]3O[C@@H](C)[C@H](O)[C@@H](O)[C@H]3O)C[C@]12C,,"Sprague Dawley rat, male, plasma","oral, 45 mg/kg, white ginseng extract",0.08 ± 0.02 h
C=CC(=O)Nc1cc(Nc2nccc(-c3cn(C)c4ccccc34)n2)c(OC)cc1N(C)CCN(C)C,,"Sprague-Dawley rat, male, plasma","oral, 10 mg/kg, with: avitinib 30 mg/kg single dose on day 7",6.8 ± 1.79 h
CC(C)=CCC[C@](C)(O[C@@H]1O[C@H](CO)[C@@H](O)[C@H](O)[C@H]1O)[C@H]1CC[C@]2(C)[C@@H]1[C@H](O)C[C@@H]1[C@@]3(C)CC[C@H](O[C@@H]4O[C@H](CO)[C@@H](O)[C@H](O)[C@H]4O[C@@H]4O[C@H](CO)[C@@H](O)[C@H](O)[C@H]4O)C(C)(C)[C@@H]3CC[C@]12C,,"Sprague-Dawley rat, plasma","oral, 200 mg/kg ginsenoside Rb1",10.6 ± 2.3 h
CS(=O)(=O)c1ccc(-c2cnc(N)c(-c3ccc(C(F)(F)F)nc3)c2)cc1,,"pregnant female Sprague-Dawley rat, plasma","oral, 3 mg/kg/day, gestation day 17",8 h
O=C(/C=C/c1ccc(O)c2c1[C@H](C(=O)O)[C@@H](c1ccc(O)c(O)c1)O2)O[C@H](Cc1ccc(O)c(O)c1)C(=O)O,UPLC-MS/MS,"Wistar rat, microcirculation dysfunction model, plasma","oral, 100 mg/kg Salvia miltiorrhiza stem-leaf extract FT",1 ± 0.82 h
Cc1nc2cccc(OCC(C)(C)C(=O)NC(C)C)c2c(N)c1C(=O)O,,"Sprague-Dawley rat both sexes, plasma","dietary, 100 mg/kg/day, day 7",1.5 h
O=C(NC[C@H]1CN(c2ccc(N3CCOCC3=O)cc2)C(=O)O1)c1ccc(Cl)s1,,"Sprague-Dawley rat, male, plasma","oral, 10 mg/kg, with: naringenin 10 mg/kg/day oral, 2 weeks",2.8 ± 0.45 h
CCOc1cc([C@@H](CS(C)(=O)=O)N2C(=O)c3cccc(NC(C)=O)c3C2=O)ccc1O[C@@H]1O[C@H](C(=O)O)[C@@H](O)[C@H](O)[C@H]1O,,"moderate renal impairment patients, plasma","oral, 30 mg of apremilast",10 h
O=C(/C=C/c1ccc(O)c(O)c1/C=C/c1ccc(O)c(O)c1)O[C@H](Cc1ccc(O)c(O)c1)C(=O)O,UPLC-MS/MS,"Wistar rat, microcirculation dysfunction model, plasma","oral, 100 mg/kg Salvia miltiorrhiza stem-leaf extract FS",0.7 ± 0.71 h
Nc1nc(N)c2nc(CNc3ccc(C(=O)N[C@@H](CCC(=O)O)C(=O)O)cc3)cnc2n1,,"female Lewis rats, plasma","subcutaneous, 500 nmol/kg of parent drug",~1 h
O=C(O)C[C@H](O)C[C@H](O)/C=C/c1c(C2CC2)nc2ccccc2c1-c1ccc(F)cc1,,"male Sprague Dawley rat, NASH, plasma","oral, 2.5 mg/kg, median, with: silymarin 500 mg/kg oral",1.25 h
CCN1CCN(c2ccc(Nc3cc(N(C)C(=O)Nc4c(Cl)c(OC)cc(OC)c4Cl)ncn3)cc2)CC1,,"Crl:WI(Han) rat, juvenile female, plasma","oral gavage, 0.3 mg/kg/day, postnatal day 17",1 h
CC(C)=CCC[C@](C)(O[C@@H]1O[C@H](CO)[C@@H](O)[C@H](O)[C@H]1O)[C@H]1CC[C@]2(C)[C@@H]1[C@H](O)C[C@@H]1[C@@]3(C)CC[C@H](O)C(C)(C)[C@@H]3[C@@H](O[C@@H]3O[C@H](CO)[C@@H](O)[C@H](O)[C@H]3O)C[C@]12C,,"Sprague Dawley rat, male, plasma","oral, 25 mg/kg, white ginseng extract",0.08 ± 0.03 h
C[C@@H]1O[C@@H](OC[C@H]2O[C@@H](Oc3c(-c4ccc(O)c(O)c4)oc4cc(O)cc(O)c4c3=O)[C@H](O)[C@@H](O)[C@@H]2O)[C@H](O)[C@H](O)[C@H]1O,UPLC-MS/MS,"Wistar rat, microcirculation dysfunction model, plasma","oral, 100 mg/kg Salvia miltiorrhiza stem-leaf extract FT",1.31 ± 1.35 h
O=C(O)Cc1ccccc1Nc1c(Cl)cccc1Cl,,"rat, plasma","oral, 10 mg/kg, with: sesamin 10 mg/kg",0.09 ± 0.0567 h
CC(=O)CC(c1ccccc1)c1c(O)c2ccccc2oc1=O (centres unmarked),,"Sprague-Dawley rat, plasma","oral, 2 mg/kg",~3 h
Cn1nnc2c(C(N)=O)ncn2c1=O,,"male athymic rat, intracranial U87 glioma, tumour extracellular fluid","oral, 50 mg/kg, recovery-corrected microdialysis, median, with: after cediranib",1.5 h
CCCC[C@H](NC(C)=O)C(=O)N[C@H]1CCC(=O)NC[C@@H](C(=O)N[C@@H](Cc2c[nH]c3ccccc23)C(N)=O)NC(=O)[C@H](CCCNC(=N)N)NC(=O)[C@@H](Cc2ccccc2)NC(=O)[C@H](Cc2c[nH]cn2)NC1=O,,"CD Sprague Dawley rat, male, plasma","subcutaneous, 5.0 mg/kg daily, day 1",1 h
CCN(CC)Cc1cc(Nc2ccnc3cc(Cl)ccc23)ccc1O,,"rat, Wistar, male, plasma","oral, 60 mg/kg, with: myricetin 5 mg/kg iv",3.9 ± 1.29 h
CC(C)=CCC[C@](C)(O[C@@H]1O[C@H](CO[C@@H]2O[C@H](CO)[C@@H](O)[C@H](O)[C@H]2O)[C@@H](O)[C@H](O)[C@H]1O)[C@H]1CC[C@]2(C)[C@@H]1[C@H](O)C[C@@H]1[C@@]3(C)CC[C@H](O[C@@H]4O[C@H](CO)[C@@H](O)[C@H](O)[C@H]4O[C@@H]4O[C@H](CO)[C@@H](O)[C@H](O)[C@H]4O)C(C)(C)[C@@H]3CC[C@]12C,,"Sprague Dawley rat, male, plasma","oral, 86 mg/kg, white ginseng extract",8 ± 2.5 h
COc1cccc(-c2n[nH]c(SCc3ccccn3)n2)c1OC,,"Sprague-Dawley rat, both sexes, plasma","oral, diet, 100 mg/kg/day, day 7",12 h
Cc1cc(-c2cc(OC(=O)c3ccccc3)ccc2Cl)cc2nnc(Nc3ccc(OCCN4CCCC4)cc3)nc12,,"Long Evans rat, sclera/choroid","topical, 1%",1 h

# Excerpt of the above:
Compound,assay,test system,setting,Tmax
COc1cccc(-c2n[nH]c(SCc3ccccn3)n2)c1OC,,"Sprague-Dawley rat, both sexes, plasma","oral, diet, 100 mg/kg/day, day 7",12 h
Cc1cc(-c2cc(OC(=O)c3ccccc3)ccc2Cl)cc2nnc(Nc3ccc(OCCN4CCCC4)cc3)nc12,,"Long Evans rat, sclera/choroid","topical, 1%",1 h
